Assay results collected from several papers.
Numbered parts are unrelated; each lists some results of a single study. Changes are numbered by the printed parent chain.
Sequence of UniProt Q38829 (whole entry, looked up): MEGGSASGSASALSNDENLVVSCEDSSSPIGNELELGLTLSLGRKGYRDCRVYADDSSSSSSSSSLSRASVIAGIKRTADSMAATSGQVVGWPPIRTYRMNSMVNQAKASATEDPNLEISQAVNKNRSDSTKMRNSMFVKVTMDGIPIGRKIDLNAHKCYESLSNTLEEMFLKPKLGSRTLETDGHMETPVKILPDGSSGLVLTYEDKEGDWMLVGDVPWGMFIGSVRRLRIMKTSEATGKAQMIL
Sequence of UniProt P93022 (whole entry, looked up): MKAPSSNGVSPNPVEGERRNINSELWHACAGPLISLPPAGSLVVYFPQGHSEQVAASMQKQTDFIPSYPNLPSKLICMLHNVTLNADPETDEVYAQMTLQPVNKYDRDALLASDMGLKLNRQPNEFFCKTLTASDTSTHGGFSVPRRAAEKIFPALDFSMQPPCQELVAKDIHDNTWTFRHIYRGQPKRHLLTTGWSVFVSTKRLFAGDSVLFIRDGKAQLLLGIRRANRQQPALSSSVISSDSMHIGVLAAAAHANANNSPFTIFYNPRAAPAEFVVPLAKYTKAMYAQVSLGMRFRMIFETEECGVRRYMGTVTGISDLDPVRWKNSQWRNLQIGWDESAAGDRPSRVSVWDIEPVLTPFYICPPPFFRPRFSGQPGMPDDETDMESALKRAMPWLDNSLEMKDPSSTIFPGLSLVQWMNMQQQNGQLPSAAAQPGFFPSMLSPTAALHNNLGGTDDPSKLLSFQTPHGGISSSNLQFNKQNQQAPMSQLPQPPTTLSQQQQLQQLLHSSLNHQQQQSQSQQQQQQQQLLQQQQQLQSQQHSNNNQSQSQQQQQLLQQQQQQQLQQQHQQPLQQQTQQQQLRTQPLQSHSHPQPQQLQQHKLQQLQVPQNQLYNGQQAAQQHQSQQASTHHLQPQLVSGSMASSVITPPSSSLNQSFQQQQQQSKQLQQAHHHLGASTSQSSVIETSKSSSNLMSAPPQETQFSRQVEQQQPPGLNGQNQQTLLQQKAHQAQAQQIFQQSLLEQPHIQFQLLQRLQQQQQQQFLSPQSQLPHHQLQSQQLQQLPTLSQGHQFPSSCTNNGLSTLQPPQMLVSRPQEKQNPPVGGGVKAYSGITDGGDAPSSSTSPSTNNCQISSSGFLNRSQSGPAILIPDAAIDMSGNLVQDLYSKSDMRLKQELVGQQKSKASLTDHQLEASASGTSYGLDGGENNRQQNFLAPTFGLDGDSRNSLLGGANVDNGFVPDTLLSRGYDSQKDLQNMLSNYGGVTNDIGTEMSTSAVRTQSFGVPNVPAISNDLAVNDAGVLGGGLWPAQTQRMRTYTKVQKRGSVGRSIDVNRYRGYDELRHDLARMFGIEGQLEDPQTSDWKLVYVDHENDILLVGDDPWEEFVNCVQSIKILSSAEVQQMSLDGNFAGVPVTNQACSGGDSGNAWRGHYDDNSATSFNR
Sequence of UniProt Q9C5W9 (whole entry, looked up): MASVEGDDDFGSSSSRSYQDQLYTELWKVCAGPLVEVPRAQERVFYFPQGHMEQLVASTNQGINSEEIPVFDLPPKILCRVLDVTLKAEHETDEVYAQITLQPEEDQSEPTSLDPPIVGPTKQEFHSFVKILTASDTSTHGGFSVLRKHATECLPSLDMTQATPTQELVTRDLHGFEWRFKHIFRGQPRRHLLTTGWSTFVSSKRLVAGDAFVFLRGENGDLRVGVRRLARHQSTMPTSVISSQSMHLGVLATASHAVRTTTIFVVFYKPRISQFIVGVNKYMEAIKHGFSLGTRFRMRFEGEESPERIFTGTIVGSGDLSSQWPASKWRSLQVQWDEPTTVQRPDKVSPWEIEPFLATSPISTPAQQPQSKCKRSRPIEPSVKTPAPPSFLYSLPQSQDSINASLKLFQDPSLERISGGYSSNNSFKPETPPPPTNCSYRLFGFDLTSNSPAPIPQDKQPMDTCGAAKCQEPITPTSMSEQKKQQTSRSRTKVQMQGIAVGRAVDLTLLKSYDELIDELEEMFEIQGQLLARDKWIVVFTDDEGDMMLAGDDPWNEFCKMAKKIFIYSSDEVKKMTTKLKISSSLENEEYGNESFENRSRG
Sequence of UniProt Q38824 (whole entry, looked up): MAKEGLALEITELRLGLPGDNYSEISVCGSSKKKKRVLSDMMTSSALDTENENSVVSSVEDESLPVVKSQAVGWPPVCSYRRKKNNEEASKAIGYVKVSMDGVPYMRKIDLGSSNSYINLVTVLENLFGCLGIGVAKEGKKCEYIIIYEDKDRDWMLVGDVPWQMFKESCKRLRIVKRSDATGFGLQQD
Sequence of UniProt Q8RYC6 (whole entry, looked up): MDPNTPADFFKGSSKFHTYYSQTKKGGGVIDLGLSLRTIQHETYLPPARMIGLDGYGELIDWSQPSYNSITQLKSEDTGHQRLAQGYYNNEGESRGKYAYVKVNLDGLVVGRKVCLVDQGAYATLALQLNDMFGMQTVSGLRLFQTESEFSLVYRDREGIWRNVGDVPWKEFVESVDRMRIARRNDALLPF

Block 1
Target: Prothrombin, mature alpha-thrombin (F2, Homo sapiens, UniProt P00734)
Technique: aptamer microarray, sandwich
Form: DNA with 2'F-ANA
Medium: in vitro
Concentration: 200 nM
Notes: whole 15-mer aptamer, many near background
With: Cy3 exosite-II aptamer, 400 nM
Reading: higher = stronger binding
Strand: GGTTGGTGTGGTTGG
Modification | mean fluorescence intensity [a.u.]
2'F-ANA at 1 2 4 6 7 11 12 13 15 | 148
2'F-ANA at 3 4 6 10 | 301
2'F-ANA at 1 2 4 6 10 14 15 | 47.8
2'F-ANA at 2 6 9 11 13 14 | 98.3
2'F-ANA at 4 6 8 9 10 13 14 15 | 56
2'F-ANA at 4 5 6 8 10 11 13 14 15 | 50.5
2'F-ANA at 3 5 6 9 10 14 15 | 52.7
2'F-ANA at 3 5 8 10 11 13 14 | 58.4
2'F-ANA at 2 3 5 8 9 10 | 56.9
2'F-ANA at 1 2 5 7 11 | 60.4
2'F-ANA at 1 2 3 4 5 6 7 8 9 15 | 70.1
2'F-ANA at 2 3 8 11 | 940
2'F-ANA at 1 2 4 5 7 9 10 12 13 14 | 49.2
2'F-ANA at 1 2 3 4 6 8 9 12 13 14 | 61.6
2'F-ANA at 1 3 4 7 8 9 10 11 15 | 59.9
2'F-ANA at 1 2 5 13 15 | 52.7
2'F-ANA at 1 2 3 4 5 7 8 10 12 13 | 46.9
2'F-ANA at 1 2 3 6 8 14 | 73.9
2'F-ANA at 6 9 13 14 | 153
2'F-ANA at 1 3 5 6 8 9 11 12 14 15 | 46
2'F-ANA at 1 2 3 5 8 10 11 15 | 47.4
2'F-ANA at 3 4 5 8 9 10 11 13 14 | 48.2

Block 2
Target: ABI1, truncated, D143A, DHFR fusion (Arabidopsis thaliana)
Technique: DHFR PCA, deep sequencing
Medium: yeast
Notes: methotrexate growth selection, single substitutions
With: (+)-ABA 17 µM
Reference: wild-type fitted maximum
Reading: higher = stronger binding
Starting sequence: PYL1, truncated, DHFR fusion (Arabidopsis thaliana); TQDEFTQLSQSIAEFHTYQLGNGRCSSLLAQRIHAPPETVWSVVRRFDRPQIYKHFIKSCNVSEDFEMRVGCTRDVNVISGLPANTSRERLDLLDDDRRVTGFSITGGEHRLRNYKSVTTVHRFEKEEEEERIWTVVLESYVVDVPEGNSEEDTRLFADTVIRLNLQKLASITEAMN; partner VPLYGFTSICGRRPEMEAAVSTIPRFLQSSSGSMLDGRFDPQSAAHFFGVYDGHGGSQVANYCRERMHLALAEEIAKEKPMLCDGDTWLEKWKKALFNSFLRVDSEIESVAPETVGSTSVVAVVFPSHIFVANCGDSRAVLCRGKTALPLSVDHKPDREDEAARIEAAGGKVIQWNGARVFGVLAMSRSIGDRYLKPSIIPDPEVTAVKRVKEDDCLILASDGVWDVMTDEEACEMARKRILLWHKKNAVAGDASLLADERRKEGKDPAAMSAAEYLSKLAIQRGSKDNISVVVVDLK
Substitution | relative binding score
Q7K | 85.4%
E128I | 76.6%
V44A | 39.3%
V76K | -21.8%
E151S | 82.6%
A84D | 2.98%
N149Q | 30.9%
V137T | 6.58%
N177F | 98.5%
F103I | 11.6%
E130W | 58%
A158P | -15.5%
S27A | 62.8%
M68C | 78.7%
G108N | 0.414%
V161T | 14.5%
V78K | -2.84%

Block 3
Molecule: B1 (IAA3)
Technique: two-hybrid
Reference: out of 4 tests
Reading: higher = firmer interaction
B1: IAA3 (Arabidopsis thaliana, UniProt Q38822); chain MDEFVNLKETELRLGLPGTDNVCEAKERVSCCNNNNKRVLSTDTEKEIESSSRKTETSPPRKAQIVGWPPVRSYRKNNIQSKKNESEHEGQGIYVKVSMDGAPYLRKIDLSCYKGYSELLKALEVMFKFSVGEYFERDGYKGSDFVPTYEDKDGDWMLIGDVPWEMFICTCKRLRIMKGSEAKGLGCGV
partner | notes | positive tests
IAA32 (Arabidopsis thaliana, UniProt Q8RYC6) | – | 0
ARF18 482-602 (Arabidopsis thaliana, UniProt Q9C5W9) | – | 0
ARF7 1030-1164 (Arabidopsis thaliana, UniProt P93022) | – | 4
IAA11 (Arabidopsis thaliana, UniProt Q38829) | weak activation fusion | 1
IAA4 (Arabidopsis thaliana, UniProt P33077) | – | 4
IAA6 (Arabidopsis thaliana, UniProt Q38824) | – | 0

Block 4
Target: CCNA1, cyclin fold, Cln2 fusion (human)
Technique: yeast growth competition, sequencing
Medium: yeast
Notes: weak parent motif
Reference: not given
Reading: higher = stronger binding
Starting sequence: GMNC docking peptide (human); KNAKRNLSSEFAN
Substitution | normalised enrichment score
N6P | 0.112
S9E | 0.2
F11E | 0.316
N6F | -0.29
N6R | 0.299
S9L | 0.871
E10W | 0.88
K4R | 1.06
K4C | 0.261
R5I | 0.0567
N2L | 0.511
S8L | 0.775
N2M | 0.212
L7H | 0.0395
S9A | 0.604
A3P | -0.723
N2E | 0.457
N6Q | 0.0996
L7K | 0.215

Repeated from above (block 3):
partner | notes | positive tests
IAA32 (Arabidopsis thaliana, UniProt Q8RYC6) | – | 0
ARF18 482-602 (Arabidopsis thaliana, UniProt Q9C5W9) | – | 0
ARF7 1030-1164 (Arabidopsis thaliana, UniProt P93022) | – | 4
IAA11 (Arabidopsis thaliana, UniProt Q38829) | weak activation fusion | 1
IAA4 (Arabidopsis thaliana, UniProt P33077) | – | 4
IAA6 (Arabidopsis thaliana, UniProt Q38824) | – | 0
